Results pooled from the literature.
Compare with care: the assays were run in different laboratories. ± gives the spread as reported.
CES1: Liver carboxylesterase 1 (CES1, Homo sapiens, UniProt P23141)
T1: RNA aptamer A9G; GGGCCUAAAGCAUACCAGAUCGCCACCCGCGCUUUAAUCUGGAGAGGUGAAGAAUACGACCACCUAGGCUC

Compound | target or system | test | system | conditions | how to read | quantity | result
CCCCCCCCCCCC(=O)Nc1ccc(OC)nc1C | CES1 | substrate |  | 50 µM, pH 8, 37 °C, enzyme purity 25% |  | specific activity | 19 pmol/min/µg
O=C(c1cc2c(s1)CCCCC2)N1CCC(n2c(=O)[nH]c3ccccc32)CC1 | Trpc6 (Mus musculus, UniProt Q61143, Y704W) | ion current, agonist, whole-cell patch clamp |  | 100 µM, Y704W mutant |  | maximal current density | 6.88 ± 2.31 pA/pF
NC(=O)C1CCNC(=O)C(Cc2ccc([N+](=O)[O-])cc2)NC(=O)C(Cc2ccco2)NC(=O)C(CC2CC2)NC(=O)C=CC(=O)N1 (stereo not drawn) | AKT3 (Homo sapiens, UniProt Q9Y243) | DNA-templated library selection |  | one selection round |  | enrichment factor | 1.5
[64Cu+2].c1cnc(CNCc2ccc(CN3CCCN4CCNCCCN(CC4)CC3)cc2)nc1 | CXCR4 (Homo sapiens, UniProt P61073) |  | NOD/SCID mice, U87 xenografts, U87-stb-CXCR4 tumour | 30 min post-injection |  | tissue uptake | 26.8 ± 2.98 %ID/g
CCCC[C@H](NC(=O)CCCCCCCNC(=O)CN1CCN(CC(=O)O)CCN(CC(=O)O)CC1)C(=O)N[C@H]1CC(=O)NCCCC[C@@H](C(N)=O)NC(=O)[C@H](Cc2c[nH]c3ccccc23)NC(=O)[C@H](CCCNC(=N)N)NC(=O)[C@@H](Cc2ccccc2)NC(=O)[C@H](Cc2c[nH]cn2)NC1=O [copper-64 labelled] |  |  | C57 mice, spleen | intravenous, 0.37 MBq, 0.5 h |  | tissue uptake | 0.99 ± 0.25 %ID/g
OC[C@@H]1[C@@H](O)[C@H](O)[C@@H](O)CN1CCCCCOCC1CCOC1 (stereo partly drawn) | Beta-glucosidase (GBA2, Homo sapiens, UniProt Q9HCG7) | enzyme activity, inhibitor, 4-MU-β-D-glucopyranoside | HEK293T cell homogenate |  | relative to: GCS IC50 over GBA2 IC50 | selectivity ratio | 989
C=CCc1ccc(O)c(-c2cc(CC=C)ccc2OCCCCCCCCCC[P+](c2ccccc2)(c2ccccc2)c2ccccc2)c1 | mitochondrial complex I, human | pyruvate/malate-driven oxygen consumption, inhibitor, Seahorse XF96 | permeabilized UACC-62 | 0.2 µM, 24 h |  | complex I activity | inhibited
Nc1nc(Nc2ccccc2)nc2ccccc12 | MAPK14 (Homo sapiens, UniProt Q16539) | enzyme activity |  |  |  | ligand efficiency | 0.23
O=C([O-])CN1CCN(CC(=O)[O-])CCN(CC(=O)NCCc2ccc3c(c2)C2C=CCC2C(c2cc4c(cc2Br)OCO4)N3)CCN(CC(=O)[O-])CC1.[111In+3] (stereo not drawn) | Hec50 tumour model |  | host not given, bone | 2 h, tumour-bearing |  | tracer uptake | 0.17 %ID/g
Cc1cn([C@@H]2C[C@@H](O)[C@H](COP(=O)(O)O)O2)c(=O)[nH]c1=O | Thymidylate kinase (DTYMK, Homo sapiens, UniProt P23919) | binding, fluorescence competition |  | together with: MABA-dTDP | relative to: compound over D-dTMP | KD ratio | 22
Cc1cc(O)c2c(c1)C(=O)c1cc3oc(=O)cc(C)c3c(O)c1C2=O | mushroom tyrosinase | enzyme activity |  | 50 µg/mL, together with: L-DOPA |  | inhibition | 30.1 ± 0.45%
O=C(O)C1OC(Oc2cccc(-c3nc(N4CCOCC4)c4oc5ncccc5c4n3)c2)C(O)C(O)C1O (stereo not drawn) | UGT1A9 (Homo sapiens, UniProt O60656) | glucuronidation, substrate, recombinant enzyme |  |  |  | substrate inhibition constant | 86.8 ± 24.3 µM
CC(=O)OCOC(=O)CN(CC(=O)OCOC(C)=O)Cc1c(OC(C)=O)ccc2c1Oc1c(ccc(OC(C)=O)c1CN(CC(=O)OCOC(C)=O)CC(=O)OCOC(C)=O)C21OC(=O)c2ccccc21 | MDAH 2774 |  |  | together with: rucaparib |  | combination index | < 1
CC(=O)NCCN(CC(=O)NCCN(CC(=O)NCCN(CC(=O)NCCC(N)=O)C(=O)C[C@@H](N)CCCNC(=N)N)C(=O)C[C@@H](N)Cc1ccccc1)C(=O)C[C@@H](N)Cc1ccccc1 | HIV-1 TAR RNA |  |  |  |  | non-electrostatic TΔS° | 4.2 ± 1.1 kJ/mol
NCCCC[C@H](NC(=O)[C@H](C/C=C\C[C@H](NC(=O)[C@@H]1CCCN1)C(=O)N[C@@H](CCCCN)C(=O)NCCCN)NC(=O)[C@@H]1CCCN1)C(=O)NCCCN | HIV-1 frameshift site RNA | SPR |  |  |  | residence time | 27 s
CC(Oc1cc(-c2ccccc2)nc2ncccc12)C(=O)N(C)c1ccccc1 (stereo not drawn) | human leukocytes | binding |  |  | relative to: LAB over HAB genotype | Ki ratio | 5 ± 2
O=c1c(-c2cnn(-c3ccccc3)c2)c(C(F)(F)F)oc2c(O)c(O)ccc12 | Cullin-3, with ROC1 (Homo sapiens, UniProt Q13618) | inhibitor |  | up to 150 µM |  | di-ubiquitin synthesis | no inhibition
CC(=O)[O][Ag]=[c]1n(C)ccn1CC([O-])c1ccccc1.[Na+] (stereo not drawn) | ACTA1 (Oryctolagus cuniculus, UniProt P68135) | actin polymerization |  | 5 µM |  | time to minimum | ~9 min

Compound | target or system | test | system | conditions | how to read | quantity | result
N=C(N)NCCC[C@@H]1NC(=O)[C@H](CCCCNC(=O)CNC(=O)CNC(=O)CNC(=O)CC[C@H](NC(=O)CNC(=O)CNC(=O)CNC(=O)CN2CCN(CC(=O)O)CCN(CC(=O)O)CCN(CC(=O)O)CC2)C(=O)NCC(=O)NCC(=O)NCC(=O)NCCCC[C@@H]2NC(=O)[C@@H](Cc3ccccc3)NC(=O)[C@H](CC(=O)O)NC(=O)CNC(=O)[C@H](CCCNC(=N)N)NC2=O)NC(=O)[C@@H](Cc2ccccc2)NC(=O)[C@H](CC(=O)O)NC(=O)CNC1=O [indium-111 labelled] |  |  | female athymic nu/nu mice, U87MG tumour | intravenous, 111 kBq, 72 h |  | tissue uptake | 1.99 ± 0.39 %ID/g
BP(=O)(OP(=O)([O-])OC[C@H]1O[C@@H](n2c[n+](C)c3c(=O)[nH]c(N)nc32)[C@H](O)[C@@H]1O)OP(=O)([O-])OC[C@H]1O[C@@H](n2c[n+](C)c3c(=O)[nH]c(N)nc32)[C@H](O)[C@@H]1O | m7GpppX diphosphatase (dcs-1, Caenorhabditis elegans, UniProt G5EFS4) | hydrolysis by DcpS, substrate, HPLC |  | 15 µM, 90 min, pH 7.6, 20 °C, enzyme 200 nM |  | cleavage | 60%
CCCCCCCC(=O)Nc1ccc(OC)nc1C | CES1 | substrate |  | 50 µM, pH 8, 37 °C, enzyme purity 25% |  | specific activity | 440 pmol/min/µg
COc1cc(CNC(=O)C[C@H](C)CCC=C(C)C)ccc1OCc1cn(-c2cccc(C(F)(F)F)c2)nn1 | KM12 | SRB |  | 10 µM, 48 h |  | growth percent | 85%
CNc1ccccc1C(=O)O[C@H]1C[C@H](n2cnc3c(N)ncnc32)O[C@@H]1COP(=O)(O)OP(=O)(O)O | Unconventional myosin-Va (Gallus gallus, UniProt Q02440, D297C/G292C/I296C/S293C/V295G) | stopped-flow FRET |  | 4 °C, together with: MgCl2 2 mM |  | pocket forward rate constant | 0.24 ± 0.15 s⁻¹
C=C(NC(=O)C(=C)NC(=O)c1csc(C2=NC3c4csc(n4)C4NC(=O)c5csc(n5)C(C(C)(O)C(C)O)NC(=O)C5CSC(=N5)C(=CC)NC(=O)C(C(C)O)NC(=O)c5csc(n5)C3(CC2)NC(=O)C(CCC(N)=O)NC(=O)C(=C)NC(=O)C(C)NC(=O)C(C(C)CC)NC2C=Cc3c(C(C)O)cc(nc3C2O)C(=O)OC4C)n1)C(N)=O (stereo not drawn) | Proteasome subunit beta type-7, in 20S proteasome (PSMB7, Homo sapiens, UniProt Q99436) | trypsin-like activity, inhibitor |  | together with: Boc-Leu-Arg-Arg-AMC | relative to: thiostrepton A | fold loss of potency | ≥ 11 fold
CC(=O)NCCN(CC(=O)NCCN(CC(=O)NCCN(CC(=O)NCCC(N)=O)C(=O)[C@@H](N)CCCCN)C(=O)[C@@H](N)Cc1ccccc1)C(=O)[C@@H](N)Cc1ccccc1 | HIV-1 TAR RNA |  |  | concentration not given |  | heat capacity change ΔCp | -2.82 ± 0.15 kJ/mol/K
CC[C@H](C)[C@H](NC(=O)[C@H](CCC(=O)O)NC(=O)[C@H](CO)NC(=O)[C@@H](NC(=O)[C@@H](N)CO)C(C)C)C(=O)N[C@@H](CCC(N)=O)C(=O)N[C@@H](CC(C)C)C(=O)N[C@@H](CCSC)C(=O)N[C@@H](Cc1c[nH]cn1)C(=O)N[C@@H](CC(N)=O)C(=O)N[C@@H](CC(C)C)C(=O)NCC(=O)N[C@@H](CCCCN)C(=O)N[C@@H](Cc1c[nH]cn1)C(=O)N[C@@H](CC(C)C)C(=O)N[C@@H](CC(N)=O)C(=O)N[C@@H](CO)C(=O)N[C@@H](CCSC)C(=O)N[C@@H](CCC(=O)O)C(=O)N[C@@H](CCCNC(=N)N)C(=O)N[C@H](C(=O)N[C@@H](CCC(=O)O)C(=O)N[C@@H](Cc1c[nH]c2ccccc12)C(=O)N[C@@H](CC(C)C)C(=O)N[C@@H](CCCNC(=N)N)C(=O)N[C@@H](CCCCN)C(=O)N[C@@H](CCCCN)C(=O)N[C@@H](CC(C)C)C(=O)N[C@@H](CCC(N)=O)C(=O)N[C@@H](CC(=O)O)C(=O)N[C@H](C(=O)N[C@@H](Cc1c[nH]cn1)C(=O)N[C@@H](CC(N)=O)C(=O)N[C@@H](Cc1ccccc1)C(=O)N[C@@H](CCCCNC(=O)c1ccc2c(c1)C1(OC2=O)c2ccc(N(C)C)cc2Oc2cc(N(C)C)ccc21)C(N)=O)C(C)C)C(C)C | PTH1R (Homo sapiens, UniProt Q03431) | binding, NanoBRET |  | pH 7.5, HEPES buffer |  | koff | 0.0049 ± 0.002 s⁻¹
CC(Oc1cc(-c2ccccc2)nc2cccnc12)C(=O)N(C)c1ccccc1 (stereo not drawn) | human leukocytes | binding |  |  | relative to: LAB over HAB genotype | Ki ratio | 21 ± 8
O=C1NC(=O)/C(=C\c2ccc(-c3ccc(C(F)(F)F)cc3)cc2)S1 | CD38 (Homo sapiens, UniProt P28907) | enzyme activity, inhibitor, fluorescence |  | 50 µM |  | remaining activity | 49.4%
N=C(N)NCCC[C@H](NC(=O)[C@H](Cc1ccccc1)NC(=O)[C@@H](N)CO)C(=O)N[C@@H](CC(N)=O)C(=O)NCC(N)=O | NPSR1 (Homo sapiens, UniProt Q6W5P4, N107I) | calcium mobilization, agonist | CHO-Galpha16 | unit not given | relative to: maximal assay window | maximal response | 0.96
O=C1CC[C@H](N2Cc3cc(-c4ccn5ncc(Cl)c5n4)ccc3C2=O)C(=O)N1 | Cereblon/Casein kinase I alpha (CSNK1A1/CRBN, Homo sapiens, UniProt P48729+Q96SW2) | degrader, immunoblot | MOLM-13 | 100 nM |  | onset time of degradation | 2 h
CC(=O)N[C@@H](CC(=O)O)C(=O)N[C@H]1CSSC[C@@H](C(=O)N[C@H](C(=O)N[C@@H](Cc2ccccc2)C(=O)N[C@@H](Cc2c[nH]cn2)C(N)=O)[C@@H](C)O)NC(=O)[C@H](Cc2c[nH]c3ccccc23)NC(=O)[C@H](C(C)C)NC(=O)[C@H](CC(C)C)NC(=O)[C@H](CCC(=O)O)NC(=O)CNC(=O)[C@H](C(C)(C)C)NC(=O)[C@H](Cc2c[nH]cn2)NC(=O)[C@H](Cc2ccc(O)cc2)NC(=O)[C@H](C)NC1=O | Immunoglobulin heavy constant gamma 1 (IGHG1, Homo sapiens, UniProt P01857) | binding, ITC |  | 25 °C, together with: Herceptin |  | –TΔS | 2.4 ± 0.3 kcal/mol
CN(C)[C@@H]1C(=O)C(C(N)=O)=C(O)[C@@]2(O)C(=O)C3=C(O)c4c(O)cccc4[C@@](C)(O)[C@H]3C[C@@H]12 | T1, RNA aptamer A9G | ITC |  | pH 7.5, 25 °C, MgCl2 10 mM |  | Kd | 402 nM
CC[C@H](C)[C@H](NC(=O)[C@@H](NC(=O)[C@H](Cc1ccccc1)NC(=O)[C@H](CC(=O)O)NC(=O)[C@H](CCCCN)NC(=O)CCNC(=O)c1ccc2c(c1)C(=O)OC21c2ccc(O)cc2Oc2cc(O)ccc21)C(C)C)C(=O)N[C@H](C(=O)N[C@@H](CCCNC(=N)N)C(=O)N[C@@H](CCCNC(=N)N)C(=O)N1CCC[C@H]1C(=O)N[C@@H](CCCCN)C(N)=O)C(C)C | human CDK2-cyclin A M210A/I213A | fluorescence polarization |  | concentration not given | relative to: wild type over mutant | binding affinity loss | ~5 fold
CC(=O)NCCN(CC(=O)NCCN(CC(=O)NCCN(CC(=O)NCCC(N)=O)C(=O)C[C@@H](N)CCCNC(=N)N)C(=O)C[C@@H](N)CCCNC(=N)N)C(=O)C[C@@H](N)Cc1ccccc1 | HIV-1 TAR RNA |  |  | 25 °C |  | binding free energy ΔG° | -37.1 ± 2.8 kJ/mol
CN(C)c1ccc2c(c1)C(=O)N([C@H](CS)C(=O)O)C2=O | Metallo-beta-lactamase type 2 (Serratia marcescens, UniProt P52699) |  |  | 10 µM, together with: 3 equivalents protein, ZnSO4 up to 50 µM |  | fluorescence increase | 8.6 fold
CC(C)c1cccc(C(C)C)c1-n1c(Cl)c(Cl)n(-c2c(C(C)C)cccc2C(C)C)c1=[Se].[Cl][Au] | TXNRD1 (Homo sapiens, UniProt Q16881) | inhibitor | H157 | 1 µM, 24 h |  | TrxR activity | no effect
